Assay results from different studies.
Protocols differ between the studies behind these lines. ± gives the spread as reported.

SMILES | test | system | conditions | Cmax
NC1(C(=O)N[C@@H](CCO)c2ccc(Cl)cc2)CCN(c2nc[nH]c3nccc2-3)CC1 |  | human patients, plasma | dose not given, cohort 160/480, cycle 2, geometric mean | 694 ng/mL
Cc1noc(C)c1-c1cc(C(O)(c2ccccn2)c2ccccn2)c2nc(C3CC3)[nH]c2c1 |  | human male patients, fasted, plasma | oral, 6 mg once daily, cycle 1 day 8 | 293 ng/mL
Cc1nc(Nc2ncc(C(=O)Nc3c(C)cccc3Cl)s2)cc(N2CCN(CCO)CC2)n1 |  | human, plasma | oral, 100 mg | 13.6 ng/mL
FC(F)(F)c1ccc(CNc2ccc(Cc3c[nH]c4ncc(Cl)cc34)cn2)cn1 | refers to: total radioactivity | healthy human male, whole blood | oral, 400 mg [14C]-labelled | 2800 ng/mL
C[C@H](CCC(=O)NCC(=O)O)[C@H]1CC[C@H]2[C@@H]3CC[C@@H]4C[C@H](OS(=O)(=O)O)CC[C@]4(C)[C@H]3CC[C@]12C |  | human, plasma | concentration not given, endogenous baseline diurnal | 1420 ± 310 nM
Cc1cc(C)c(CNC(=O)c2cc(Cl)c3c(c2C)O[C@@](C)([C@H]2CC[C@H](N(C)C)CC2)O3)c(=O)[nH]1 | mean | healthy male humans, plasma | oral, 25 mg, day 1, alone, fluconazole group | 113 ng/mL
CC(C)(Sc1ccncc1-c1ccc(C#N)c2ccccc12)C(=O)O |  | human, plasma | oral, 10 mg once daily, together with: febuxostat 0 mg | 34.8 ng/mL
C#C[C@]1(CO)O[C@@H](n2cnc3c(N)nc(F)nc32)C[C@@H]1O |  | human, plasma | oral, 200 mg, single dose, geometric mean | 6170 nM
CCOc1c([C@H](C)n2nc(C)c3c(N)ncnc32)cc(Cl)c(F)c1[C@@H]1CNC(=O)C1 |  | human patients | oral, 45 mg once daily, cycle 1 day 15, monotherapy | 5530 ± 3210 nM
CC1(COc2ccc3c(c2)ncn3-c2ccc3cccc(N4CCC(N)CC4)c3n2)COC1 |  | human patients, recurrent/progressive HGG or DIPG, serum | oral, 170 mg/m^2, day 28, median | 1650 nM
C[C@H]1CN(C(=O)CC#N)[C@]12CCN(c1ncnc3[nH]ccc13)C2 |  | healthy human, plasma | oral, 3 mg single, mean | 19.9 ng/mL
C=CC(=O)N(C)CCOc1c(N)ncnc1-c1cc(F)cc(NC(=O)c2ccc(C3CC3)cc2F)c1C |  | human, whole blood | oral, 100 mg, single ascending dose, fasted | 141 ng/mL
Cc1nc(Nc2ncc(C(=O)Nc3c(C)cccc3Cl)s2)cc(N2CCN(CCO)CC2)n1 |  | human patients | oral, 85 mg/m^2, day 8 | 200 ± 68 ng/mL
Cc1cn(C(=O)c2c(-c3c(Cl)cc(Cl)cc3Cl)noc2C(C)(C)F)c2cccc(/C=C/C(=O)O)c12 |  | human patients | 1000 mg bid, cycle 1 day 1 | 27100 ng/mL
N#C[C@H](C[C@@H]1CCCNC1=O)NC(=O)[C@H](CC1CC1)NC(=O)c1cc2cccc(Cl)c2[nH]1 |  | human | 150 mg once daily, day 5 | 1100 ng/mL
COc1cc(Nc2c(C#N)cnc3cc(OCCCN4CCN(C)CC4)c(OC)cc23)c(Cl)cc1Cl | refers to: total drug | human, mild hepatic impairment, plasma | single dose, Child-Pugh classification | 78.1 ng/mL
Cc1cc(Nc2cc3ncccc3c(N[C@@H]3C[C@H]4CC[C@@H](C3)N4CCC#N)n2)n[nH]1 |  | human, plasma | 100 mg single dose, mean | 4.44 ng/mL
N#CCNC(=O)c1ccc(-c2ccnc(Nc3ccc(N4CCOCC4=O)cc3)n2)cc1 |  | healthy human volunteers, plasma | 200 mg momelotinib, day 1, fasted, momelotinib alone | 588 ng/mL
Cc1cc(-c2nccc3c2ccn3CC(=O)Nc2ccc(-c3cnccn3)cn2)ccn1 |  | human, plasma | oral, 5 mg once daily, day 1, geometric mean | 41.8 nM
Cn1ncnc1[C@H]1c2n[nH]c(=O)c3cc(F)cc(c23)N[C@@H]1c1ccc(F)cc1 |  | human patients, plasma | oral, 600 µg/m2 twice daily, day 1, monotherapy, dose level DL6, median | 8.1 ng/mL

SMILES | test | system | conditions | Cmax
C=CC(=O)NC1CCN(c2ncc3ncnc(Nc4ccc(Oc5ccc6c(c5)ncn6C)c(C)c4)c3n2)CC1 |  | human, male, plasma | oral, 30 mg single dose, fed, geometric mean | 208 nM
CCNCCCNC/C=C\CNCCCNCC | LC-MS/MS | human cancer patients, plasma | intravenous infusion 60 min, 50 mg, median, cycle 1 | 91.7 ng/mL
C[C@@H](Cn1ccc(-c2ccc(C#N)c(Cl)c2)n1)NC(=O)c1cc([C@@H](C)O)[nH]n1 |  | human, fasted, plasma | oral, 300 mg darolutamide tablet, geometric mean | 277 ng/mL
Cc1cc(C)c(CNC(=O)c2cc(Cl)c3c(c2C)O[C@@](C)([C@H]2CC[C@H](N(C)C)CC2)O3)c(=O)[nH]1 | refers to: total radioactivity | human male, plasma | oral, 200 mg | 2400 ng eq/mL
O=C(O)CCC(=O)O.[2H]C([2H])([2H])Oc1cc(C)c2[nH]ccc2c1CN1CC[C@@H](C2CC2)C[C@H]1c1ccc(C(=O)O)cc1 | LC-MS/MS, geometric mean | human, plasma | 50 mg, single dose, fasting | 990 ng/mL
C=CC(=O)N1CCC[C@@H](n2c(=O)n(-c3ccc(Oc4ccccc4)cc3)c3c(N)nccc32)C1 |  | human, fasted, plasma | oral, 240 mg, geometric mean | 65.4 ng/mL
CC(C)n1c(Nc2cccnc2)nc2cnc(Nc3ccc(N4CCN(C)CC4)cc3)nc21 | LC-MS/MS | human, male, plasma | oral, 100 mg, day 11, together with: itraconazole 200 mg | 64 ng/mL
Nc1ccc(-c2nc([C@H]3CCc4cc(-c5cc(Cl)ccc5-n5cnnn5)cc(=O)n43)c(F)[nH]2)c(F)n1 |  | human, plasma | oral, 150 mg once daily, day 14 | 2000 ng/mL
Nc1ccc(S(=O)(=O)Nc2ccccn2)cc1 |  | human | oral, 1000 mg, day 1, sulfasalazine alone | 5800 ng/mL
CNC(=O)c1ccccc1Sc1ccc2c(/C=C/c3ccccn3)n[nH]c2c1 | refers to: total drug | human, moderate hepatic impairment, plasma | single dose, NCI classification | 71.3 ng/mL
CC#CC(=O)N1CCC[C@H]1c1nc(-c2ccc(C(=O)Nc3ccccn3)cc2)c2c(N)nccn12 |  | human, plasma | oral, 100 mg once daily dosing, together with: rifampicin 600 mg | 142 ng/mL
CCCOc1ccc(NC(=O)CN2CCN(C)CC2)cc1-c1nc(CC)c(CC)c(=O)[nH]1 |  | human, fasting, plasma | oral, 10 mg, together with: placebo | 56.8 ± 15.1 ng/mL
CC(=O)O.NC(=O)c1cnc(N[C@@H]2CCCC[C@@H]2N)nc1Nc1cccc(-n2nccn2)c1 |  | human, plasma | oral, 110 mg once daily | 223 ng/mL
CN[C@@H](C)C(=O)N[C@H]1CN(S(=O)(=O)c2cccc(S(=O)(=O)N3CC[C@H]4CC[C@@H](C(=O)NC(c5ccccc5)c5ccccc5)N4C(=O)[C@@H](NC(=O)[C@H](C)NC)C3)c2)CC[C@H]2CC[C@@H](C(=O)NC(c3ccccc3)c3ccccc3)N2C1=O | LC-MS/MS, noncompartmental | human, plasma | 20 mg, cycle 1 day 1 | 820 ± 543 ng/mL
Cc1ccc(C(=O)N(CCCN)C(c2nc3snc(C)c3c(=O)n2Cc2ccccc2)C(C)C)cc1 (stereo not drawn) |  | human patients, plasma | intravenous, 18 mg/day, day 3 of induction course, geometric mean | 200 ng/mL
N#CCC1CCN(c2nc(Nc3ccc(N4CCC(O)CC4)cc3)c3c(=O)[nH]ncc3n2)CC1 |  | human, plasma | oral, 80 mg once daily, day 1 | 186 ng/mL
C#C[C@]1(O)CC[C@H]2[C@@H]3CCC4=CC(=O)CC[C@@H]4[C@H]3CC[C@@]21CC |  | human female, plasma | single dose oral contraceptive, together with: ritlecitinib 50 mg once daily multiple doses | 2.24 ng/mL
COc1ccc([C@@H](O)c2cc(-c3ncnc4cc(N5CCOCC5)ccc34)c(F)cc2Cl)nn1 |  | healthy human volunteers, plasma | oral, 100 mg single dose, tablet, fasted, geometric mean | 265 ng/mL
CC(C)NC(=O)COc1cccc(-c2nc(Nc3ccc4[nH]ncc4c3)c3ccccc3n2)c1 |  | human male, plasma | oral, 200 mg, day 6, alone, adjusted geometric mean | 2050 ng/mL
Nc1c2c(cc3c1CCC3)CCC2 |  | human, plasma | oral, 300 mg twice daily of GDC-2394, day 7, multiple ascending dose | 19.9 ng/mL

SMILES | test | system | conditions | Cmax
CC(C)c1nc(N(C)S(C)(=O)=O)nc(-c2ccc(F)cc2)c1/C=C/[C@@H](O)C[C@@H](O)CC(=O)O |  | human, plasma | oral, 10 mg, together with: vepdegestrant 200 mg | 2.6 ng/mL
NC(=S)NN=Cc1ncccc1N |  | human, plasma | oral, 100 mg | 476 ng/mL
NCCCS(=O)(=O)O |  | human, plasma | oral, 256.5 mg twice daily, day 7, capsule, fasted, dosed days 2-7 | 1190 ng/mL
CCn1cc(C(=O)N2CCOCC2)c(=O)c2cc(NC3Cc4ccccc4C3)cnc21 |  | human, fed | oral suspension, 1200 mg single dose, arithmetic mean | 2640 ng/mL
CC(C)CCC[C@@H](C)[C@H]1CC[C@H]2[C@@H]3C(O)CC4=CC(=O)CC[C@]4(C)[C@H]3CC[C@]12C (stereo partly drawn) |  | human, plasma | concentration not given, endogenous baseline diurnal | 115 ± 20 nM
Cn1nnc2c(C(N)=O)ncn2c1=O |  | human patients, plasma | oral, 30 mg/m2, day 5, dose level DL4, median, together with: talazoparib 600 µg/m2 | 1610 ng/mL
C[C@H](CCC(=O)NCCS(=O)(=O)O)[C@H]1CC[C@H]2[C@@H]3CC[C@@H]4C[C@H](O)CC[C@]4(C)[C@H]3C[C@H](O)[C@]12C |  | human, plasma | concentration not given, endogenous baseline diurnal | 127 ± 27 nM
CN(C)C(=O)c1cc2cnc(Nc3ccc(N4CCNCC4)cn3)nc2n1C1CCCC1 |  | human, expansion cohort, plasma | oral, 800 mg, day 14, together with: gemcitabine 1000 mg/m^2 | 3340 ± 1780 ng/mL
Nc1ccn([C@@H]2O[C@H](CO)[C@@H](O)C2(F)F)c(=O)n1 | HPLC-UV | human, plasma | intravenous, 800 mg/m^2, median, before paricalcitol | 15000 ng/mL
C[C@H]1[C@H](OC(=O)CCC(=O)O)O[C@@H]2O[C@@]3(C)CC[C@H]4[C@H](C)CC[C@@H]1[C@@]24OO3 |  | human, both sexes, plasma | oral, dose not given, non-fixed combination | 295 ng/mL
CN1CC[C@@H](NC(=O)Nc2ccc(C#N)cc2)C[C@@H]1c1nc2ccccc2[nH]1 |  | human | oral, 100 mg, cycle 1 day 21, given alone | 1060 ng/mL
COc1ccc2nc([S@@+]([O-])Cc3ncc(C)c(OC)c3C)[nH]c2c1 |  | human, dried blood spots | oral, 10 mg omeprazole, together with: fluvoxamine | 208 ng/mL
CC(C)n1nc(-c2ccc3oc(N)nc3c2)c2c(N)ncnc21 |  | human, plasma | oral, 3 mg once daily, cycle 1 day 1 | 42.8 ng/mL
O=C(Nc1cnccc1Cl)N1CCN(Cc2ccc3c(c2)OC(F)(F)O3)CC1 |  | human healthy young men, plasma | oral, 75 mg once daily, day 10, multiple dose mean | 942 ng/mL
COc1cc([C@@H]2Oc3cc([C@H]4Oc5cc(O)cc(O)c5C(=O)[C@@H]4O)ccc3O[C@H]2CO)ccc1O |  | OATP1B1/1B3 humanized mice, plasma | oral gavage, 500 mg/kg silymarin | 2050 nM
CNC(=O)n1ccc2cc(Oc3ccnc(NC(=O)c4ccc(C5CCN(CCO)CC5)cc4)c3)c(OCCOC)cc21 |  | healthy human, plasma | oral, 35 mg, geometric mean, alone | 6.8 ng/mL
COC(=O)N[C@H](C(=O)N1CCC[C@H]1c1nc2cc([C@H]3CC[C@H](c4cc5nc([C@@H]6CCCN6C(=O)[C@@H](NC(=O)OC)[C@@H](C)OC)[nH]c5cc4F)N3c3cc(F)c(N4CCC(c5ccc(F)cc5)CC4)c(F)c3)c(F)cc2[nH]1)[C@@H](C)OC |  | healthy human subjects, plasma | oral, dose not given, single dose alone | 320 ng/mL
C[C@H](CCC(=O)O[C@@H]1O[C@H](C(=O)O)[C@@H](O)[C@H](O)[C@H]1O)[C@H]1CC[C@H]2[C@@H]3[C@H](O)C[C@@H]4C[C@H](O)CC[C@]4(C)[C@H]3CC[C@]12C |  | human, plasma | concentration not given, endogenous baseline diurnal | 25.9 ± 3.1 nM
Cc1cccc(F)c1N1CCC(N2Cc3cn(CC(C)(F)F)nc3N(Cc3ccccc3C(F)(F)F)C2=O)CC1 |  | human healthy males, plasma | oral, 100 mg, single dose, fed, geometric mean | 1020 ng/mL
CN(C(=O)C(C)(C)c1cc(C(F)(F)F)cc(C(F)(F)F)c1)c1cnc(N2C[C@H]3COCCN3C[C@H]2CO)cc1-c1ccc(F)cc1[14CH3] | refers to: total radioactivity | human, plasma | oral, 120 mg | 960 ng equiv/mL
